{"data": "Measured values pooled from the literature", "note": "Compare with care: the assays were run in different laboratories. Values joined by “and” are separate records of one study, mostly repeats; a detail may differ. Numbers after ± are the reported error."}
{"SMILES": "CCC(CC)O[C@@H]1C=C(C(=O)O)C[C@H](N)[C@H]1NC(C)=O", "tested on": "influenza A virus A/PR/8/34 (H1N1)", "conditions": "concentration not given, co-treatment", "measurement": "HA titre reduction", "value": "8 log units"}
{"SMILES": "C[C@H]1O[C@@H](O[C@H]2CC[C@@]3(C)[C@@H](CC[C@]4(C)[C@@H]3C=C[C@]35OC[C@@]6(CCC(C)(C)C[C@H]63)[C@@H](O)C[C@]54C)[C@]2(C)CO)[C@H](O)[C@@H](O[C@@H]2O[C@H](CO)[C@@H](O)[C@H](O)[C@H]2O)[C@H]1O", "assay": "refers to: ACC-1", "system": "chronic-plus-binge ethanol-fed mice, AAV8-TBG-Null, liver", "conditions": "dose not given, high dose, unit not given", "how to read": "baseline: AAV8-TBG-Null ethanol group", "measurement": "mRNA level", "value": "0.286 and 0.292 and 0.272 and 0.338 and 0.293 and 0.33"}
{"SMILES": "CS(=O)(=O)Nc1ncn(-c2cc(F)c(COc3ccc(OS(=O)(=O)F)cc3)c(F)c2)n1", "tested on": "Mycobacterium tuberculosis", "system": "H37Rv", "measurement": "MBC", "value": "0.078 µM"}
{"SMILES": "CCCCC1(CCCC)CN(c2ccccc2)c2cc(SC)c(OCC(=O)N[C@@H](C(=O)NCC(=O)O)c3ccccc3)cc2S(=O)(=O)C1", "assay": "refers to: HDL cholesterol", "system": "human, serum", "conditions": "15 mg once daily, day 2", "measurement": "serum HDL-C", "value": "45.7 mg/dL"}
{"SMILES": "C=CCNCCc1c[nH]c2cccc(O)c12.C=CCNCCc1c[nH]c2cccc(O)c12.O=C(O)/C=C/C(=O)O", "system": "C57BL/6J mice", "conditions": "subcutaneous, 10 mg/kg", "measurement": "head twitch count", "value": "78.2 ± 5.5"}
{"SMILES": "CCCCCCCCCCCCCCCCCC[N+](C)(C)Cc1ccc(C[N+](C)(C)CCCCCCCCCCCCCCCCCC)cc1.[Br-].[Br-]", "tested on": "influenza A virus A/PR/8/34 (H1N1)", "conditions": "concentration not given, co-treatment", "measurement": "HA titre reduction", "value": "1 log units"}
{"SMILES": "[Ca+2]", "tested on": "Halyomorpha halys", "assay": "outward current, inhibitor, whole-cell patch clamp", "conditions": "1 mM, Nan-Iav W701A", "measurement": "inhibition", "value": "12.8%"}
{"SMILES": "Cn1c(=O)ccc2ccc(F)c(CCNC[C@H]3CN(c4cnc5c(n4)NC(=O)CO5)C(=O)O3)c21", "tested on": "Bacteroides fragilis", "measurement": "MIC50", "value": "0.06 µg/mL"}
{"SMILES": "Cl.ClCCN(CCCl)c1ccc(CCNc2ccnc3cc(Cl)ccc23)cc1", "tested on": "Dengue virus type 2", "assay": "viral replication, Rluc reporter replicon", "system": "BHK-21 DENV2 replicon cells", "conditions": "50 µM, 24 h", "measurement": "inhibition", "value": "99.8 ± 0.03%"}
{"SMILES": "CCCCNCCc1c[nH]c2cccc(O)c12.O=C(O)/C=C/C(=O)O", "system": "C57BL/6J mice", "conditions": "subcutaneous, 3 mg/kg", "measurement": "head twitch count", "value": "7.3 ± 1.2"}
{"SMILES": "CCCCCCCCCCCCCCCCCC[N+](C)(C)CCCCCCCCCC[N+](C)(C)CCCCCCCCCCCCCCCCCC.[Br-].[Br-]", "tested on": "influenza A virus A/PR/8/34 (H1N1)", "conditions": "concentration not given, co-treatment", "measurement": "protection", "value": "83.3 ± 5.9%"}
{"SMILES": "O=c1ccn([C@@H]2O[C@](F)(CO)[C@@H](O)[C@H]2O)c(=O)[nH]1", "tested on": "human respiratory syncytial virus", "system": "recombinant reporter virus", "conditions": "concentration not given, scale 0 to 100, added: adenosine 0.4 µM", "measurement": "normalized viral replication", "value": "1.86 and 2.19 and 1.12"}
{"SMILES": "CCCCCCCCCCCCCCCC[N+](C)(C)CCCCCC[N+](C)(C)CCCCCCCCCCCCCCCC.[Br-].[Br-]", "tested on": "influenza A virus A/PR/8/34 (H1N1)", "conditions": "concentration not given, post-treatment", "measurement": "protection", "value": "59.2 ± 9.9%"}
{"SMILES": "COc1cc(CCC[P+](c2ccccc2)(c2ccccc2)c2ccccc2)c(OC)c2c1OCO2.[I-]", "tested on": "K562", "assay": "SRB", "measurement": "GI50", "value": "-6.18 log M"}
{"SMILES": "O=C(O)/C=C/C(=O)O.Oc1cccc2[nH]cc(CCNC3CCCCC3)c12", "system": "C57BL/6J mice", "conditions": "subcutaneous, 30 mg/kg, 30 min", "measurement": "distance travelled", "value": "1380 ± 352 cm"}
{"SMILES": "CC[C@H](C)[C@H](NC(=O)[C@H](C)NC(=O)[C@H](CCCCN)NC(=O)[C@H](CC(C)C)NC(=O)[C@H](C)NC(=O)[C@@H](NC(=O)[C@H](Cc1c[nH]cn1)NC(=O)[C@H](CC(C)C)NC(=O)[C@@H](NC(=O)[C@@H](NC(=O)[C@H](CCCCN)NC(=O)[C@H](C)NC(=O)[C@H](C)NC(=O)[C@H](CO)NC(=O)[C@H](CCCCN)NC(=O)[C@H](Cc1ccccc1)NC(=O)[C@@H](NC(=O)[C@H](CCCCN)NC(=O)[C@H](CC(C)C)NC(=O)[C@H](Cc1ccccc1)NC(=O)[C@H](CO)NC(=O)[C@H](CCCCN)NC(=O)[C@H](Cc1c[nH]c2ccccc12)NC(=O)[C@H](CCCCN)NC(C)=O)[C@@H](C)O)[C@@H](C)O)C(C)C)[C@@H](C)O)C(=O)N[C@@H](CO)C(=O)N[C@@H](CO)C(N)=O", "tested on": "Enterococcus faecium", "conditions": "40 strains", "measurement": "MBC50", "value": "16 µg/mL"}
{"SMILES": "C=CCN1CC[C@]23c4c5ccc(O)c4O[C@H]2C(=O)CC[C@@]3(O)[C@H]1C5", "assay": "antinociception, hot plate", "system": "male ICR-CD1 mice", "conditions": "subcutaneous, 5 mg/kg, 45 min", "measurement": "maximum possible effect", "value": "5.34% and 9.51% and -22.3% and -1.86% and 8.54% and -9.33%"}
{"SMILES": "CC(C)(C)NCCc1c[nH]c2cccc(O)c12.CC(C)(C)NCCc1c[nH]c2cccc(O)c12.O=C(O)/C=C/C(=O)O", "system": "C57BL/6J mice", "conditions": "subcutaneous, 0.1 mg/kg", "measurement": "head twitch count", "value": "4.8 ± 0.9"}
{"SMILES": "CC[C@H](C)[C@@H]1NC(=O)[C@@H]2CCCN2C(=O)[C@H](CC(C)C)NC(=O)[C@H](CC(C)C)NC(=O)CNC(=O)[C@@H](NC(=O)[C@@H](NC(=O)[C@H](CC(=O)O)NC(=O)CNC(=O)[C@@H](NC(=O)[C@H](C)NC(=O)CNC(=O)[C@H](CCCCN)NC(=O)[C@H](CC(C)C)NC(=O)[C@H](CC(C)C)NC(=O)[C@H](CCCCN)NC(=O)CNC(=O)[C@@H](NC(=O)[C@@H](N)CC(C)C)C(C)C)C(C)C)C(C)C)CSSC[C@@H](C(=O)O)NC1=O", "assay": "RNA-seq, refers to: Ptafr mRNA", "system": "mouse traumatic brain injury, frontal cortex and hippocampus", "conditions": "dose not given", "how to read": "baseline: TBI plus compound vs TBI", "measurement": "log2 fold change", "value": -2.76}
{"SMILES": "CC(C)NCCc1c[nH]c2cccc(O)c12.O=C(O)/C=C/C(=O)O", "system": "C57BL/6J mice", "conditions": "subcutaneous, 30 mg/kg", "measurement": "head twitch count", "value": "31.8 ± 8.5"}
{"SMILES": "C[C@H](N)[C@H](O)c1ccc(O)c(O)c1", "tested on": "human iPSC-derived cardiomyocytes", "assay": "MyBP-C/MYH ratio, plate-normalised SD score", "conditions": "concentration not given, primary screen", "how to read": "direction not given", "measurement": "activity score", "value": -5}
{"SMILES": "CCCNCCc1c[nH]c2cccc(O)c12.CCCNCCc1c[nH]c2cccc(O)c12.O=C(O)/C=C/C(=O)O", "system": "C57BL/6J mice", "conditions": "subcutaneous, 1 mg/kg", "measurement": "head twitch count", "value": "13.8 ± 2.3"}
{"SMILES": "CSc1cccc(CC(=O)N[C@H]2CCOC2=O)c1", "tested on": "ExpR2 (Pectobacterium carotovorum)", "assay": "cellulase activity, agonist", "system": "Pectobacterium carotovorum, single-ExpR2 strain", "conditions": "200 µM, 4 h", "how to read": "baseline: OHHL", "measurement": "activation", "value": "13%"}
{"SMILES": "COc1cc2c(Oc3ccc4[nH]c(C)cc4c3F)ccnc2cc1OCC1(N)CC1", "system": "paediatric recurrent refractory sarcoma", "conditions": "concentration not given, whole group", "measurement": "grade 1 or 2 Cholesterol elevation", "value": "20.6%"}
{"SMILES": "CCNCCc1c[nH]c2cccc(O)c12.CCNCCc1c[nH]c2cccc(O)c12.O=C(O)CCC(=O)O", "system": "C57BL/6J mice", "conditions": "subcutaneous, 0.1 mg/kg", "measurement": "head twitch response", "value": "9.8 ± 2.5 count/30 min"}
{"note": "Repeated from above:"}
{"SMILES": "CSc1cccc(CC(=O)N[C@H]2CCOC2=O)c1", "tested on": "ExpR2 (Pectobacterium carotovorum)", "assay": "cellulase activity, agonist", "system": "Pectobacterium carotovorum, single-ExpR2 strain", "conditions": "200 µM, 4 h", "how to read": "baseline: OHHL", "measurement": "activation", "value": "13%"}
{"SMILES": "COc1cc2c(Oc3ccc4[nH]c(C)cc4c3F)ccnc2cc1OCC1(N)CC1", "system": "paediatric recurrent refractory sarcoma", "conditions": "concentration not given, whole group", "measurement": "grade 1 or 2 Cholesterol elevation", "value": "20.6%"}
{"SMILES": "CCNCCc1c[nH]c2cccc(O)c12.CCNCCc1c[nH]c2cccc(O)c12.O=C(O)CCC(=O)O", "system": "C57BL/6J mice", "conditions": "subcutaneous, 0.1 mg/kg", "measurement": "head twitch response", "value": "9.8 ± 2.5 count/30 min"}
